Published values pooled from the literature.
Compare with care: the assays were run in different laboratories. ± gives the spread as reported.

`CC(=O)CCC1C(=O)NC(C(C)C)C(=O)NC(Cc2cc(O)cc(F)c2)C(=O)N2CCCC(N2)C(=O)OC(C(C)=CC=CC(=O)N2CCCCO2)CC=CC=CC(O)C(C)C1O` (stereo not drawn) has an unbound fraction of 0.22 (dialysis; human plasma; 1 µM, 5 h, 37 °C).
For `COC(=O)C[C@](O)(CCCC(C)(C)OC(C)=O)C(=O)O[C@@H]1C(OC)=C[C@]23CCCN2CCc2cc4c(cc2[C@H]13)OCO4`, the tissue concentration was 443 ng/mL (CD1 mouse, spleen; oral, 1 mg/kg, 2 h).
`CC[C@H](C)[C@H](NC(=O)[C@H](CCC(=O)O)NC(=O)[C@H](CCC(=O)O)NC(=O)[C@H](Cc1ccccc1)NC(=O)[C@H](CC(=O)O)NC(=O)CNC(=O)[C@H](CC(N)=O)NC(=O)CNC(=O)CNC(=O)CNC(=O)CNC(=O)[C@@H]1CCCN1C(=O)[C@H](CCCNC(=N)N)NC(=O)[C@@H]1CCCN1C(=O)[C@H](N)Cc1ccccc1)C(=O)N1CCC[C@H]1C(=O)N[C@@H](CCC(=O)O)C(=O)N[C@@H](CCC(=O)O)C(=O)N[C@@H](Cc1ccc(O)cc1)C(=O)N[C@@H](CC(C)C)C(=O)O` has a concentration of 29.8 ± 0.5 ng/mL (LC-MS/MS; human plasma; 4 h, 25 °C, stability, nominal 30.0 ng/mL).
With `C=Cc1cc(O)cc2nc(-c3ccc(O)c([76Br])c3)oc12` the tissue uptake was 0.36 ± 0.14 %ID/g (female C57BL/6 mouse, blood; 1 h, high dose).
For `CN[C@](C)(C[18F])C(=O)O`, the tissue uptake was 5.7 ± 1.8 %ID/g (SCID mouse DU-145 xenograft, spleen; 120 min, post injection).
`O=C(CCCCCCC(=O)Nc1ccccc1N=Nc1ccccc1)NO` — result for “cis isomer content”: 83% (1H NMR; DMSO; irradiation 365 nm).
For `CC[C@H](C)C(=O)N1CCC(NC(=O)Nc2ccc(OC(F)(F)F)c(F)c2)CC1`, the AUC was 119 ng·h/mL (human, plasma; oral, 2 mg, single dose, healthy volunteers).
`CSCC[C@H](NC(=O)[C@H](CO)NC(=O)[C@H](Cc1ccc(O)cc1)NC(=O)[C@@H](N)CO)C(=O)N[C@@H](CCC(=O)O)C(=O)N[C@@H](Cc1c[nH]cn1)C(=O)N[C@@H](Cc1ccccc1)C(=O)N[C@@H](CCCNC(=N)N)C(=O)N[C@@H](Cc1c[nH]c2ccccc12)C(=O)NCC(=O)N[C@@H](CCCCN)C(=O)N1CCC[C@H]1C(=O)N[C@H](C(=O)NCC(=O)N[C@@H](CCCCN)C(=O)N[C@@H](CCCCN)C(=O)N[C@@H](CCCNC(=N)N)C(=O)N[C@@H](CCCNC(=N)N)C(=O)N1CCC[C@H]1C(=O)N[C@H](C(=O)N[C@@H](CCCCN)C(=O)N[C@H](C(=O)N[C@@H](Cc1ccc(O)cc1)C(=O)N1CCC[C@H]1C(=O)N[C@@H](CC(=O)O)C(=O)NCC(=O)N[C@@H](C)C(=O)N[C@@H](CCC(=O)O)C(=O)N[C@@H](CC(=O)O)C(=O)N[C@@H](CCC(=O)O)C(=O)N[C@@H](CC(C)C)C(=O)N[C@@H](C)C(=O)N[C@@H](CCC(=O)O)C(=O)N[C@@H](C)C(=O)N[C@@H](Cc1ccccc1)C(=O)N1CCC[C@H]1C(=O)N[C@@H](CC(C)C)C(=O)N[C@@H](CCC(=O)O)C(=O)N[C@@H](Cc1ccccc1)C(=O)O)C(C)C)C(C)C)C(C)C` has an AUC(0-last) of 0.856 ng·h/mL (healthy human subjects, plasma; subcutaneous, 80 IU three times weekly, day 15, repository corticotropin injection).
The tumour uptake of `COc1ccc(C)cc1NC(=O)OC1CC2CCCC(C1)N2Cc1ccc(CC[18F])cc1` (stereo not drawn) is reported as 4.08 ± 0.66 %ID/g (BALB/c mice EMT6 tumour, tumour; 2 h).

Excerpt of the above:
`CSCC[C@H](NC(=O)[C@H](CO)NC(=O)[C@H](Cc1ccc(O)cc1)NC(=O)[C@@H](N)CO)C(=O)N[C@@H](CCC(=O)O)C(=O)N[C@@H](Cc1c[nH]cn1)C(=O)N[C@@H](Cc1ccccc1)C(=O)N[C@@H](CCCNC(=N)N)C(=O)N[C@@H](Cc1c[nH]c2ccccc12)C(=O)NCC(=O)N[C@@H](CCCCN)C(=O)N1CCC[C@H]1C(=O)N[C@H](C(=O)NCC(=O)N[C@@H](CCCCN)C(=O)N[C@@H](CCCCN)C(=O)N[C@@H](CCCNC(=N)N)C(=O)N[C@@H](CCCNC(=N)N)C(=O)N1CCC[C@H]1C(=O)N[C@H](C(=O)N[C@@H](CCCCN)C(=O)N[C@H](C(=O)N[C@@H](Cc1ccc(O)cc1)C(=O)N1CCC[C@H]1C(=O)N[C@@H](CC(=O)O)C(=O)NCC(=O)N[C@@H](C)C(=O)N[C@@H](CCC(=O)O)C(=O)N[C@@H](CC(=O)O)C(=O)N[C@@H](CCC(=O)O)C(=O)N[C@@H](CC(C)C)C(=O)N[C@@H](C)C(=O)N[C@@H](CCC(=O)O)C(=O)N[C@@H](C)C(=O)N[C@@H](Cc1ccccc1)C(=O)N1CCC[C@H]1C(=O)N[C@@H](CC(C)C)C(=O)N[C@@H](CCC(=O)O)C(=O)N[C@@H](Cc1ccccc1)C(=O)O)C(C)C)C(C)C)C(C)C` has an AUC(0-last) of 0.856 ng·h/mL (healthy human subjects, plasma; subcutaneous, 80 IU three times weekly, day 15, repository corticotropin injection).
